# Published values of several laboratories.
# Numbered parts are unrelated; each lists some results of a single study. Positions count from the first letter of the parent shown.

# Series 1 — technique: universal PBM; form: double-stranded DNA, one strand shown; medium: in vitro; concentration: 600 nM; reading: higher = stronger binding
# Target: Sal-like protein 4, full length isoform A (SALL4, Homo sapiens, UniProt Q9UJQ4, residues 1-1053)
# Chain of UniProt Q9UJQ4 (whole entry, looked up): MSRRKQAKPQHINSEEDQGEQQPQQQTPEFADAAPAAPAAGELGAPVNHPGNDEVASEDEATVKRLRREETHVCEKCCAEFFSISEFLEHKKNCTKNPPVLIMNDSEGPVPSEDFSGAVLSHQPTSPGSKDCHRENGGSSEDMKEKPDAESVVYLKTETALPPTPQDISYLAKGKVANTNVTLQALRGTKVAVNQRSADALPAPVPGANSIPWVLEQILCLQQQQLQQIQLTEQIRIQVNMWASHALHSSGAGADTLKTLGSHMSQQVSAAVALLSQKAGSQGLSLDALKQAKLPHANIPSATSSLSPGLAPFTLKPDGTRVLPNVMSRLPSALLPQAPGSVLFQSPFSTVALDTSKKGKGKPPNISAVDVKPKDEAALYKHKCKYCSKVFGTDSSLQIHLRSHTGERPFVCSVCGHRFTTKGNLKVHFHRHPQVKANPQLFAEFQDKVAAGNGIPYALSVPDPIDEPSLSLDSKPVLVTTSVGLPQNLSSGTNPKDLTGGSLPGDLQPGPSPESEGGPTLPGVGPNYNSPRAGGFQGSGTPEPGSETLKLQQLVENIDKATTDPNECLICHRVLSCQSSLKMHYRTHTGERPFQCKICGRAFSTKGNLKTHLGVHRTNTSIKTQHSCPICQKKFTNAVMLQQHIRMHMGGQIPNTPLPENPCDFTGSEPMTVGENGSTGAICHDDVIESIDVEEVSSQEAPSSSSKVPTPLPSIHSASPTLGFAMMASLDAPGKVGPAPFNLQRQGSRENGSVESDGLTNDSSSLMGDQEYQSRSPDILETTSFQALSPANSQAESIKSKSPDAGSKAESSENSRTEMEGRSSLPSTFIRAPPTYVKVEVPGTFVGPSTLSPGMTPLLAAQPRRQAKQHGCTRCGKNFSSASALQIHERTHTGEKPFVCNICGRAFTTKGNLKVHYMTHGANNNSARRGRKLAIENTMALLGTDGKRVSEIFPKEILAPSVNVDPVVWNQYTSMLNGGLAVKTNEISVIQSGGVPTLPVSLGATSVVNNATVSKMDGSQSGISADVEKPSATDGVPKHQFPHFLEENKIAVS
# Notes: 8-mer, flanks averaged, mean of replicates
Strand,E-score
TCAAACGA,0.12
CAGATCTC,-0.111
AGTAAAAG,0.216
ACACCACA,-0.0966
CCGCCGAG,-0.369
AAAGTGTT,0.165
CGGGCGAG,-0.333
ACTGAATC,0.0196

# Series 2 — target: CEP164, C-terminal peptide (human); technique: DHFR complementation, deep sequencing; medium: yeast; reference: wild type; reading: higher = weaker binding
# Notes: single substitutions, model-inferred values
# Starting sequence: PDZK1, PDZ domain 2 (human); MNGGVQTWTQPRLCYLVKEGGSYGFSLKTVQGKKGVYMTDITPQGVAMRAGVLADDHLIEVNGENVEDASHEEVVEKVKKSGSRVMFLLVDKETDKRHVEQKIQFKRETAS; partner HNRVKVYRF
Variant,binding free energy change [kcal/mol]
K102M,-0.0728
A69T,-0.141
V74N,1.13
K106N,-0.0927
E72S,0.584
S111I,0.0207
W8S,-0.0364
M38T,0.421

# Series 3 — target: Sox-I, HMG box (Salpingoeca helianthica); technique: Spec-seq; form: double-stranded DNA, one strand shown; medium: in vitro; concentration: not given; notes: whole probe, mean of replicates; reference: not given; reading: lower = stronger binding; shared flanks, not repeated: GAGTCGTCTCGTCAGCAC … CCGTAGAGCACTCAGGTC
# Construct (chain): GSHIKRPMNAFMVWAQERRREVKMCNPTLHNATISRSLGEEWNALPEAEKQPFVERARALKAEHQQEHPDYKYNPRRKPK
Strand,relative binding energy [ln ratio]
CGTTGTT,-1.83
GGTCGTT,0.846
CATCATC,0.547
AGCAGTT,0.0222
AACAGTT,-1.2
CATTGTT,-2.71
AGACGTT,0.481
CCACGTT,0.634

# Other studies, line by line
# Starting sequence: viral docking peptide; TSVRRALFTGGSD; partner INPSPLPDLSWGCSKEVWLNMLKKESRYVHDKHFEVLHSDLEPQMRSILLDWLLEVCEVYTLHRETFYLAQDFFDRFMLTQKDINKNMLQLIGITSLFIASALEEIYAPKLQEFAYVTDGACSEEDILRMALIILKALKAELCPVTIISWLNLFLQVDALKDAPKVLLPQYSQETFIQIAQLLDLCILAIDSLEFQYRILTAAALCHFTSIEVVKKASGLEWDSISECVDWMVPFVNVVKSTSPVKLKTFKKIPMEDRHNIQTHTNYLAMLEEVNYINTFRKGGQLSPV
Variant,target,assay,system,setting,how to read,quantity,value
F8M,"CCNE2, cyclin fold, Cln2 fusion (human)","yeast growth competition, sequencing",yeast,strong parent motif,"reference: not given, higher = stronger binding",normalised enrichment score,0.427
